# Experimental data of several laboratories.
# Each numbered part is a random draw from the data of one study; scales do not carry over between parts. Changes are numbered by the printed parent chain.

# Study 1
# Target: CCNE2, cyclin fold, Cln2 fusion (human)
# Method: yeast growth competition, sequencing
# Medium: yeast
# Setting: weak parent motif
# Reference: not given
# Direction: higher = stronger binding
# Starting sequence: MASTL docking peptide (human); PMIAKNLMCELDE
Variant,normalised enrichment score
K5C,-0.0606
M8N,-0.331
C9Y,-0.311
A4I,-0.0585
L7F,-0.0161
A4R,0.3
M2G,-0.0217
D12L,0.104
L11W,0.138
M2T,0.122
C9T,0.231
I3V,-0.277
A4H,0.0349
K5N,-0.016
M2F,0.11
L11H,0.0808

# Study 2
# Target: Prothrombin, mature alpha-thrombin (F2, Homo sapiens, UniProt P00734)
# Method: aptamer microarray, sandwich
# Form: DNA with 2'F-ANA
# Medium: in vitro
# Tested at: 200 nM
# Setting: whole 15-mer aptamer, many near background
# Together with: Cy3 exosite-II aptamer, 400 nM
# Direction: higher = stronger binding
# Strand: GGTTGGTGTGGTTGG
Modification,mean fluorescence intensity
2'F-ANA at 1 2 3 5 6 7 10 11 12 13 14,44.1 a.u.
2'F-ANA at 2 3 6 8 12 13 14 15,429 a.u.
2'F-ANA at 2 3 10 12 13 14 15,280 a.u.
2'F-ANA at 7 9,597 a.u.
2'F-ANA at 4 6 7 10 12 15,102 a.u.
2'F-ANA at 1 3 5 6 9 11 14,61 a.u.
2'F-ANA at 1 3 4 10 12,90 a.u.
2'F-ANA at 3 4 6 8 9 10,247 a.u.
2'F-ANA at 1 2 3 9 10 11,62.1 a.u.
2'F-ANA at 1 4 5 6 7 8 9 12 13 15,81.8 a.u.
2'F-ANA at 1 2 4 6 7 11 14,50.8 a.u.
2'F-ANA at 1 4 7 8 9 10 13 15,52.1 a.u.
2'F-ANA at 1 3 4 5 7 8 10 11 13 14,44.2 a.u.
2'F-ANA at 1 2 4 5 6 7 14,56.8 a.u.
2'F-ANA at 4 7 8 10 11 14 15,94.1 a.u.
2'F-ANA at 2 3 6 8 9 10 11,308 a.u.

# Study 3
# Target: Histone acetyltransferase KAT6A, winged helix 2, GST fusion (KAT6A, Homo sapiens, UniProt Q92794, residues 85-181)
# Method: protein binding microarray
# Form: double-stranded DNA, one strand shown
# Medium: in vitro
# Tested at: not given
# Setting: 8-mer, flanks averaged, mean of 2 arrays, mostly near background
# Reference: not given
# Direction: higher = stronger binding
# Construct (chain): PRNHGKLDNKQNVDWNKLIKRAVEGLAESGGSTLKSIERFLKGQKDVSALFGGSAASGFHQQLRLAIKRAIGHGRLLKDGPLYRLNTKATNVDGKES
Strand,E-score
CTCTGGGA,-0.00124
GATGCCCC,-0.0194
CAGGTGGG,0.0779
TACCAAGA,0.033
CAGCTGGA,-0.0141
CTTGAAAA,0.142
CTACGAGA,-0.0774
CCATTGGA,0.0156
AACATAGT,-0.157
GACTTACA,-0.144
CGACAACA,0.0551
CAAGACCC,-0.101
CGAATTCG,0.156
CATAAGCC,-0.0847
AGAGTTGC,-0.00737
ACTGAACG,-0.12
ATGTGCTG,0.0672
AGATGCGG,0.139
TAACCATA,-0.181
CGAACAAG,-0.023
ATCCGTTA,0.0425
AGGAGACC,-0.108

# Study 4
# Target: MAFK, bZIP domain (human)
# Method: DHFR protein complementation
# Medium: yeast
# Setting: single substitutions, most at no-binding floor
# Reference: wild-type JUN-FOS pair
# Direction: higher = stronger binding
# Starting sequence: JUN, bZIP domain (human); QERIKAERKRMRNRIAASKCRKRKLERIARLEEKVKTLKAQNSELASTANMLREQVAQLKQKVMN; partner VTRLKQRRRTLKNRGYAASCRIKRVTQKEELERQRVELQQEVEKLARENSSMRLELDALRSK
Variant,binding fitness [natural log]
V56A,-1.47
E33C,-1.55
K39S,-1.55
E44S,-1.4
T48S,-1.47
K36W,-1.54
I28A,-1.32
A46P,-1.47
S47M,-1.45
K34Q,-1.35
K34S,-1.51
Q55E,-1.41
S43I,-1.62
N42I,-1.23
V35T,-1.42
Q41D,-1.46
K34W,-1.38
L45E,-1.5
A57E,-1.45
S43R,-1.45
M51S,-1.5
T37L,-1.36
E44Q,-1.42
T37C,-1.53
N42V,-1.33

# Study 5
# Target: Sal-like protein 4, full length isoform A (SALL4, Homo sapiens, UniProt Q9UJQ4, residues 1-1053)
# Sequence of UniProt Q9UJQ4 (whole entry, looked up): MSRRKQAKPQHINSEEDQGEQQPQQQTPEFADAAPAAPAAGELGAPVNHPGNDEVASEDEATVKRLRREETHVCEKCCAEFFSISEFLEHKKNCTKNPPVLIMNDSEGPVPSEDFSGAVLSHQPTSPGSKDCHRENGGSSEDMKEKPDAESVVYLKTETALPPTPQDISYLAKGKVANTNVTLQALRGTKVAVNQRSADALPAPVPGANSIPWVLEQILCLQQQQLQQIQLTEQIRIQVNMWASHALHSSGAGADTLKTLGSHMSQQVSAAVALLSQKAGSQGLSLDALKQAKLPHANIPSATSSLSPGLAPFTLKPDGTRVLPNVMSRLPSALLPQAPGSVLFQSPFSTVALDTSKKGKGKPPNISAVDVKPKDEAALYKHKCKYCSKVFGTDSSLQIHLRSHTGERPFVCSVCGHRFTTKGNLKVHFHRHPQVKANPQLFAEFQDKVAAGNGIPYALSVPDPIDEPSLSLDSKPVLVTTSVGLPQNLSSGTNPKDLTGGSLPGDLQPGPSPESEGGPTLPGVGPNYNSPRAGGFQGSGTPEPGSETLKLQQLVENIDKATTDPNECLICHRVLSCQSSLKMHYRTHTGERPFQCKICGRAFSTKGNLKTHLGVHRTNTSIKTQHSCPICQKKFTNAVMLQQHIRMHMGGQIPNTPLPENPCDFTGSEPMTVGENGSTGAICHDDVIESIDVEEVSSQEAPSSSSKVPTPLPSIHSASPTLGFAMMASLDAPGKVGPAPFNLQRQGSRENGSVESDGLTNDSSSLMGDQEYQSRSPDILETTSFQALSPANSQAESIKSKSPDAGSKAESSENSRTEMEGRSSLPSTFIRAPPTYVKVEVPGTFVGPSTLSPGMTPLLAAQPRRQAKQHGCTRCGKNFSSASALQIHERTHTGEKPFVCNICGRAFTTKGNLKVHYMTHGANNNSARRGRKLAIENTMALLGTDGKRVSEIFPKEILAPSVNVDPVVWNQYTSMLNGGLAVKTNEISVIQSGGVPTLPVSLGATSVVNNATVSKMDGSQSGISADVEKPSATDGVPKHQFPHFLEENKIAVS
# Method: universal PBM
# Form: double-stranded DNA, one strand shown
# Medium: in vitro
# Tested at: 600 nM
# Setting: 8-mer, flanks averaged, mean of replicates
# Direction: higher = stronger binding
Strand,E-score
GCCTATTA,0.203
GGCGACTA,-0.171
CCGGAACG,-0.25
TCGGGCCA,-0.291
ATACGTGC,0.0365
ATCCCGTG,-0.118
CCATTCGG,-0.0971
ATTCGGCC,-0.225
AACGTTTC,0.144
ATTCCGGC,-0.198
AGGACTAT,0.0531
AAACATGC,0.0568
CGTTGATC,0.0633
CGTTGTTC,-0.0267
CAAGAGGA,-0.0342
ATGTACCG,0.0139
GCGTCCAA,-0.173
CGCAAACG,-0.0595

# Study 6
# Target: RING finger protein unkempt homolog, zinc fingers 1-6, SBP tag (UNK, Homo sapiens, UniProt Q9C0B0, residues 30-357)
# Sequence of UniProt Q9C0B0 (30-357, looked up): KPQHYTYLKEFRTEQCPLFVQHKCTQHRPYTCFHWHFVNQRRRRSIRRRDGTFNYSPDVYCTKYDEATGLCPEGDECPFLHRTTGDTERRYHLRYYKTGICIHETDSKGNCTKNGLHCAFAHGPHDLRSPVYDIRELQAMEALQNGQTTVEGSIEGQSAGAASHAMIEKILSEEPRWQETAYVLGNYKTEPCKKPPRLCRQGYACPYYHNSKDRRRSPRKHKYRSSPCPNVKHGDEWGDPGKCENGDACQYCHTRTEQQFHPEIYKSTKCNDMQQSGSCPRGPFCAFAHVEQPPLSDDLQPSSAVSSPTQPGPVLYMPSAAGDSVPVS
# Method: RNA Bind-n-Seq
# Form: RNA
# Medium: in vitro
# Tested at: 100 nM
# Setting: RNA with constant flanks, vertebrate orthologous sites, ends assumed
# Reference: input RNA pool
# Direction: higher = stronger binding
# All sequences stand within: GGGAGUUCUACAGUCCGACGAUC … CAACAGAGGAUUGAGCAUCA
Strand,bound/input enrichment
UAUUAAACACCAUCAGCGGCCUUCAAGUACACAGUCUGUUCAGGCACAACUGACUGGUUCGAGUUAAUUUUCAGGAUACAUCCAGGCAGUCAGCACUGUCCUGCAGUCCAGUUGGAGACG,0.196 ratio
GGAAGAGAUUCUUGUGAUUUUUUUUAAUGUUUAAAACAUUUCUUUUAUGAUCUUCCAGUAUGUCAUUUUUGAUGGAACUGGAAUAUUGACACUUCUCACCUAGUCUUUGUAAAGAAUCAC,0.611 ratio
GAGCUAAAGGAGUUAGCAUCUUUAUUUUUGUAUCAAAGACAAAGGUUAUUUUGAAAUUAUUAGGAUUUUUACACAACUGUGAAAUCUGUUGCUUUUGUAAACAAGUUGUUUGAUCUUAGG,0.559 ratio
CUGCUUUAUGGGCCUCGCAGAGUUGAAAUAAUGGAAGAGGAAAGUGAACAGUAAACAUUUUAGUAUUUAUGCUUAGGUGUGAAAUGUUACUCGUUGAUCAUUUCUACAAUCCAGAGCUUU,0.444 ratio
UCCCGGCAGCGCCAGCGCGGGUAGCCACCCUUCUCACACUGCUCUGUCUUUAUUUUAUUUUCCUCAGGACUGACCCUGAGGCUCCAGCUUUUGUGGUUCAUCUCGUAUUUAUUUUAUCUU,1.31 ratio
AUAAUCACUCUAAUUGUAAUCUGAAGGAAGUGUAACAUUGUGUAGCCUUUUUGUAUAAAAUAGACAAAUAGAAAUGGUCCAAUUAGUUUCCUUUUUAAUAUGCUUAAAAUAAGCAGGUGG,1.56 ratio
UCUUAUUACACUCUUCUAGGGAAGAGAUGAACUGGGGAAAACUCUCUCCUUUUUAUAGAUUAAUUUGUCUCUAAAUUAUGACCAAAAAUAUUUUGCUAUUUCUUUCUUUAUAUAUGCACA,0.755 ratio
UACAUCUGGUGAUAUUUGGCCUGGCCUUUCAGCUUAUGAUAAUAGUCCAAGGUCACCUCAUAGUCCUUCACCUAUUGCUACCCCACCCAGUCAGAGUUCAUCAUGCUCAGAUGCCCCCAU,0.831 ratio
